Results collected from several papers.
Lines come from different studies, so protocols differ. ± gives the spread as reported.
Target: Mu-type opioid receptor (OPRM1, Homo sapiens, UniProt P35372)
UniProt P35372, sequence (whole entry, looked up): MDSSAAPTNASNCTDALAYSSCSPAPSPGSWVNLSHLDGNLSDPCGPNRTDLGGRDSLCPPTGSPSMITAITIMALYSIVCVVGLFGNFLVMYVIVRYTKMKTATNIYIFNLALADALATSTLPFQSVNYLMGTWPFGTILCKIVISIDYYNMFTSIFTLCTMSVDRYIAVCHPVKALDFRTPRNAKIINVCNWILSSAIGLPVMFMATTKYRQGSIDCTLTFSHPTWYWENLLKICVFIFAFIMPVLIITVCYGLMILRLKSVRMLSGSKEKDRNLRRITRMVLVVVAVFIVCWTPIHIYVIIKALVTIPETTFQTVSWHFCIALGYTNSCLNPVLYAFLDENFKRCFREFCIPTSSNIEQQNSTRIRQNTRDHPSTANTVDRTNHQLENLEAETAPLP

For CCCC(CCC)c1nc2c(Nc3ccc(C#CCCCCCCCCN)cc3)nc3ccccc3c2[nH]1, off-target affinity read “inactive” (PDSP screening).
With CCCC[C@H](NC(=O)[C@H](C)c1c(C)[nH]c2ccc(O)cc12)c1ncc(-c2cc3ccccc3nc2OC)[nH]1 the Hill coefficient was 0.9.
O=C(NO)c1ccc(CN2CCCCc3ccccc32)c(F)c1 gave an inhibition of 5.81% (radioligand binding, radioligand displacement; 10 µM, mean of replicates).
With COc1cc(CNCCc2ccccc2)ccc1Oc1ccc(C(N)=O)cn1 the Imax was 100 ± 3.3% (β-arrestin2 recruitment, antagonist, BRET1; HEK-293T; added: DAMGO EC80; relative to: naloxone).
CN(C(=O)n1cnc(-c2ccc[n+]([O-])c2)c1)C1CCCCC1 has an inhibition of -10.4% (binding; 10 µM).
Cc1c(C(=O)NN2CCOCC2)nn(-c2ccc(Cl)cc2Cl)c1-c1ccc(I)cc1 — result for “intracellular cAMP level”: “no effect” (agonist; CHO expressing OPRM1; 10 µM, added: forskolin).
For NC(=O)c1nnn(Cc2cc(Cl)c(C(=O)c3ccc(Cl)cc3)c(Cl)c2)c1N, the response was greater than 50% (cell-based; 10 µM; relative to: control).
CCS(=O)(=O)c1nc(S(=O)(=O)c2ccccc2Cl)c(N2CCN(C)C(=O)[C@H]2C)s1 gave an inhibition of 7.93% (10 µM).
OCCCN1CC[C@@H]2C[C@H]1c1cc(-c3ccc(C(F)(F)F)cc3)ccc12 gave an inhibition of less than 50% (radioligand binding, PDSP competition binding; 10 µM).
COc1cc(Cl)c(C(=O)N[C@@H](CN[C@H]2CC[C@@H](N)CC2)Cc2ccc(C#N)cc2)cc1-c1ccc(CN[C@H](C)c2ccc(C)cc2)o1 gave an inhibition of 13% (agonist response, antagonist; 10 µM; relative to: agonist control).

Excerpt of the above:
OCCCN1CC[C@@H]2C[C@H]1c1cc(-c3ccc(C(F)(F)F)cc3)ccc12 gave an inhibition of less than 50% (radioligand binding, PDSP competition binding; 10 µM).
